Measurements of several laboratories.
Compare with care: the assays were run in different laboratories. Numbers after ± are the reported error.

| Compound | test | system | setting | how to read | measurement | value |
| --- | --- | --- | --- | --- | --- | --- |
| N=C(N)NCCC[C@@H]1NC(=O)[C@H](CCCCNC(=O)CNC(=O)CNC(=O)CNC(=O)CC[C@H](NC(=O)CNC(=O)CNC(=O)CNC(=O)CN2CCN(CC(=O)O)CCN(CC(=O)O)CCN(CC(=O)O)CC2)C(=O)NCC(=O)NCC(=O)NCC(=O)NCCCC[C@@H]2NC(=O)[C@@H](Cc3ccccc3)NC(=O)[C@H](CC(=O)O)NC(=O)CNC(=O)[C@H](CCCNC(=N)N)NC2=O)NC(=O)[C@@H](Cc2ccccc2)NC(=O)[C@H](CC(=O)O)NC(=O)CNC1=O [indium-111 labelled] |  | female athymic nu/nu mice, muscle | intravenous, 111 kBq, 72 h |  | tissue uptake | 0.2 ± 0.05 %ID/g |
| COc1ccc2cc([C@H](C)C(=O)NCCCC[C@@H](NC(=O)[C@@H](Cc3ccccc3)NC(=O)[C@H](N)Cc3ccccc3)C(=O)O)ccc2c1 | oscillatory rheology | hydrogel 0.8 wt% |  |  | critical strain | 0.41% |
| N=C(N)NCCC[C@@H]1NC(=O)[C@H](CCCCNC(=O)CNC(=O)CNC(=O)CNC(=O)CC[C@H](NC(=O)CNC(=O)CNC(=O)CNC(=O)CC[C@H](NC(=O)CN2CCN(CC(=O)O)CCN(CC(=O)O)CCN(CC(=O)O)CC2)C(=O)NCC(=O)NCC(=O)NCC(=O)N[C@@H](CCC(=O)NCC(=O)NCC(=O)NCC(=O)NCCCC[C@@H]2NC(=O)[C@@H](Cc3ccccc3)NC(=O)[C@H](CC(=O)O)NC(=O)CNC(=O)[C@H](CCCNC(=N)N)NC2=O)C(=O)NCC(=O)NCC(=O)NCC(=O)NCCCC[C@@H]2NC(=O)[C@@H](Cc3ccccc3)NC(=O)[C@H](CC(=O)O)NC(=O)CNC(=O)[C@H](CCCNC(=N)N)NC2=O)C(=O)NCC(=O)NCC(=O)NCC(=O)NCCCC[C@@H]2NC(=O)[C@@H](Cc3ccccc3)NC(=O)[C@H](CC(=O)O)NC(=O)CNC(=O)[C@H](CCCNC(=N)N)NC2=O)NC(=O)[C@@H](Cc2ccccc2)NC(=O)[C@H](CC(=O)O)NC(=O)CNC1=O [indium-111 labelled] |  | female athymic nu/nu mice, bone | intravenous, 1 h |  | tissue uptake | 2.35 ± 0.64 %ID/g |
| CCCC[C@H](NC(=O)[C@H](CC(N)=O)NC(=O)[C@H](CCCNC(=N)N)NC(=O)[C@@H](NC(=O)CNC(=O)[C@H](C)NC(=O)[C@H](CCCCNC(=O)CCC(=O)O[C@@H](C(=O)O[C@H]1C[C@@]2(O)[C@@H](OC(=O)c3ccccc3)[C@@H]3[C@]4(OC(C)=O)CO[C@@H]4C[C@H](O)[C@@]3(C)C(=O)[C@H](O)C(=C1C)C2(C)C)[C@@H](NC(=O)OC(C)(C)C)c1ccccc1)NC(=O)[C@H](C)NC(=O)[C@H](CCCNC(=N)N)NC(=O)[C@@H](NC(=O)CNC(C)=O)C(C)C)C(C)C)C(=O)N[C@@H](Cc1ccccc1)C(=O)N[C@@H](CCCCNC(=O)CCC(=O)O[C@@H](C(=O)O[C@H]1C[C@@]2(O)[C@@H](OC(=O)c3ccccc3)[C@@H]3[C@]4(OC(C)=O)CO[C@@H]4C[C@H](O)[C@@]3(C)C(=O)[C@H](O)C(=C1C)C2(C)C)[C@@H](NC(=O)OC(C)(C)C)c1ccccc1)C(=O)N[C@@H](CO)C(=O)N[C@@H](CCC(=O)O)C(=O)N[C@@H](CO)C(=O)N[C@@H](Cc1ccc(O)cc1)C(=O)O |  | CD-1 mice, plasma | iv, 50 mg/kg |  | distribution half-life | 27.6 min |
| Cc1cc(-c2ccc(NC(=O)[C@H](CCCCNC(=O)CCOCCOCCC(=O)N[C@H](Cc3ccccc3)C(=O)N[C@H]3CSSC[C@@H](C(=O)N[C@H](C(=O)O)[C@@H](C)O)NC(=O)[C@H]([C@@H](C)O)NC(=O)[C@H](CCCCN)NC(=O)[C@@H](Cc4c[nH]c5ccccc45)NC(=O)[C@H](Cc4ccc(O)cc4)NC3=O)NC(=O)CN3CCN(CC(=O)O)CCN(CC(=O)O)CCN(CC(=O)O)CC3)c(C)c2)ccc1N=Nc1ccc2c(S(=O)(=O)O)cc(S(=O)(=O)O)c(N)c2c1O [lutetium-177 labelled] |  | patients with metastatic NETs, lymph node metastases |  | reference: cpd over 177Lu-EB-TATE | absorbed dose ratio | 2.7 fold |
| CCCCCCCC/C=C\CCCCCCCC(=O)OC[C@H](NC(=O)[C@H](Cc1c[nH]c2ccccc12)NC(=O)[C@H](Cc1c[nH]cn1)NC(=O)[C@@H]1CCC(=O)N1)C(=O)N[C@@H](Cc1ccc(O)cc1)C(=O)N[C@H](CC(C)C)C(=O)N[C@@H](CC(C)C)C(=O)N[C@@H](CCCNC(=N)N)C(=O)N1CCC[C@H]1C(=O)NCC |  | human plasma | 1 mg/mL, 37 °C |  | time to 50% degradation | ≤ 1.5 days |
| N=C(N)NCCC[C@@H]1NC(=O)[C@H](CCCCNC(=O)CN2CCN(CC(=O)O)CCN(CC(=O)O)CCN(CC(=O)O)CC2)NC(=O)[C@@H](Cc2ccccc2)NC(=O)[C@H](CC(=O)O)NC(=O)CNC1=O |  | octanol/ammonium acetate buffer | pH 6.8, 64Cu-labelled |  | logD | -4.3 |
| N=C(N)NCCC[C@@H]1NC(=O)[C@H](CCCCNC(=O)CC[C@H](NC(=O)CC[C@H](NC(=O)CN2CCN(CC(=O)O)CCN(CC(=O)O)CCN(CC(=O)O)CC2)C(=O)N[C@@H](CCC(=O)NCCCC[C@@H]2NC(=O)[C@@H](Cc3ccccc3)NC(=O)[C@H](CC(=O)O)NC(=O)CNC(=O)[C@H](CCCNC(=N)N)NC2=O)C(=O)NCCCC[C@@H]2NC(=O)[C@@H](Cc3ccccc3)NC(=O)[C@H](CC(=O)O)NC(=O)CNC(=O)[C@H](CCCNC(=N)N)NC2=O)C(=O)NCCCC[C@@H]2NC(=O)[C@@H](Cc3ccccc3)NC(=O)[C@H](CC(=O)O)NC(=O)CNC(=O)[C@H](CCCNC(=N)N)NC2=O)NC(=O)[C@@H](Cc2ccccc2)NC(=O)[C@H](CC(=O)O)NC(=O)CNC1=O [indium-111 labelled] |  | female athymic nu/nu mice, muscle | intravenous, 111 kBq, 4 h |  | tissue uptake | 0.63 ± 0.11 %ID/g |
| C[C@@H](O)[C@H](NC(=O)[C@@H]1CSSC[C@H](NC(=O)[C@@H](Cc2ccccc2)NC(=O)CN2CCCN3CCN(CCCN(CC(=O)O)CC3)CC2)C(=O)N[C@@H](Cc2ccc(O)cc2)C(=O)N[C@H](Cc2c[nH]c3ccccc23)C(=O)N[C@@H](CCCCN)C(=O)N[C@@H]([C@@H](C)O)C(=O)N1)C(=O)O [copper-64 labelled] |  | MCF7 xenograft, mouse | 4 h, SSTR2-yCD expressing tumour, together with: Y3-TATE 200 µg blocking | reference: saline | SUV | no effect |
| CCCC[C@H](NC(=O)COCCOCCNC(=O)CN1CCN(CC(=O)O)CCN(CC(=O)O)CC1)C(=O)N[C@H]1CC(=O)NCCCC[C@@H](C(N)=O)NC(=O)[C@H](Cc2c[nH]c3ccccc23)NC(=O)[C@H](CCCNC(=N)N)NC(=O)[C@@H](Cc2ccccc2)NC(=O)[C@H](Cc2c[nH]cn2)NC1=O [copper-64 labelled] |  | C57 mice, tumor | intravenous, 0.37 MBq, 24 h |  | tissue uptake | 8.78 ± 2.29 %ID/g |

Some of these lines once more:
| Compound | test | system | setting | how to read | measurement | value |
| --- | --- | --- | --- | --- | --- | --- |
| CCCCCCCC/C=C\CCCCCCCC(=O)OC[C@H](NC(=O)[C@H](Cc1c[nH]c2ccccc12)NC(=O)[C@H](Cc1c[nH]cn1)NC(=O)[C@@H]1CCC(=O)N1)C(=O)N[C@@H](Cc1ccc(O)cc1)C(=O)N[C@H](CC(C)C)C(=O)N[C@@H](CC(C)C)C(=O)N[C@@H](CCCNC(=N)N)C(=O)N1CCC[C@H]1C(=O)NCC |  | human plasma | 1 mg/mL, 37 °C |  | time to 50% degradation | ≤ 1.5 days |
